# Measurements collected from several papers.
# Numbered parts are unrelated; each lists some results of a single study.

# Sample 1 — technique: RNA Bind-n-Seq; molecule type: RNA; medium: in vitro; tested at: 365 nM; baseline: no-protein control; direction: higher = stronger binding
# Target: RNA binding protein fox-1 homolog 2, RRM domain, GST-SBP tag (RBFOX2, Homo sapiens, UniProt O43251-10, residues 100-194)
# Notes: natural RNA segment, single round, ends assumed
# Constant ends, left off below: GGGAGUUCUACAGUCCGACGAUC … UGGAAUUCUCGGGUGCCAA
# Target sequence (chain): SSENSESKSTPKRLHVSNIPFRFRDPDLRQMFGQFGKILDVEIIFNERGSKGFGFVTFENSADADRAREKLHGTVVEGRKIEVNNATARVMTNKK
Strand,RBNS enrichment (R)
GUUGUAACACUGAGGUAUCUCAUUUGCUCAUGUUAAUUUUUUUCUAAAUAAAUGGACAAAAAAUGAAGGUUCUGGUGAGUUAGCUGUUUUAUGGGUGUUAAGGACUGGUC,0.477
UAAUCAGAAGCAUUUGAUAAUAAUCUGCCUUGCAGCCACGCCUUCAAACUUCAUUGUUGCUUUCUCUUCUGGCCUUGUAAUGUUUGAGUCAAGCCCUGCUUCUCAGCUAG,0.436
CUGGGUGGAGGCAGACCCCGAGCUCGGGGAAGGGGUUUUCCUGCCUUCACGACCCAGAUCUGUGCUGGCCAAAGUCGCUGCGUUUCUCAUCCCCAGCGAGGGUUUCCUCU,0.42
GGGAAUCCUAGAGGGGAUGGAAGACGCGGGGAGUGAGCUGGGUGGGCCCUGCUAGCGAGAGAGGUCAACCCCGGUGGCCAGGGAACCCACUUCCAAGCGCAGGGACGCCG,0.821
UCCAUUCCACCUGACCCUGUGUGUACAAUCCAGGAAAAAAACAAACCCCACUCAGAAACAGAGAAAACUGGGGUCGCGAAGAAAUCACAGCCAAGGAAGAUUUGAUGCAU,0.419
ACAUUUUAACAACUGGCACACACAUGAGCCUACACACUUGAGCCUACACACAUGAGCCAGUUUUUCCUUAUUGUAGUGUCCUGUGAGACAGACCAGCUCCAAGCACUGCU,0.433
CUCCUGCGGCACCCCGAGAGGGACCCCCAUGCUGGACACCUUCAGAGCGUGUGCAUAGGUGGUCUCUGACCUGAACAUCACAGUGCGGAGAAAGCCCGGCUGGAAACACC,0.233
CACAACACUCAUCUGUCAAACACCAAGCACUCUCAGCCUCCCCGCCUUCAGCUGUCAGCUUUCUGGGGCUAACUUCUCUGCCUUUGUGGUUGGAGGCCUGAGGCCUCUUG,0.421
UACAGGGUUCAGUUUUGUAUAUUUUUUCAGCAAAUUUUUAUACAGUGUCAUUUAAUUUGGGAGAGGAUACUGUCCAGAAAAUUAAUGCAUACUUUUGUCACAAUUUGCCU,0.521
GGAGAACACCAGCCCCACCUGGACCCCGUGACCUUUGCCCUCUGACCUGCCACGGCCACCUCCGAGACAAAAUCCUUGCUGCUUCUCUUUCAUGGUGCUGUCCCGCCGGA,0.362
UAAUUAGAGCACAGGGAGCAGGGCAGCUGUUAUUCCUGUUUUACCAAGUCAAGGCUUAGGGAAGUUCAGCCACCUGCUUAGAUGAUAUAUCAAGGUGGCAGUGGAAGGGG,0.438
GUGGCCCCUAGCCAUGUAUCCAUUGGCUGUUUUGGCUUCAGAUUCAACCAAGAUCUGCCUGACUAAAAGAAGCCACCUCAGCGCAGUGGAACGGGGCCCAGGGGGAGGCA,6.41

# Sample 2 — technique: EMSA with sequencing; molecule type: double-stranded DNA, one strand shown; medium: in vitro; tested at: 10 and 20 nM; baseline: negative control set to 0; direction: higher = stronger binding
# Target: Hepatocyte nuclear factor 3-alpha (Foxa1, Mus musculus, UniProt P35582, residues 1-468, full length assumed)
# Notes: whole designed probe, mean of two concentrations, ends assumed
# Constant ends, left off below: GTGAGCGGTGCCCATTGATGGGGAAC … TTTCACTGGGATCGTGGGGAC
# Residues (chain): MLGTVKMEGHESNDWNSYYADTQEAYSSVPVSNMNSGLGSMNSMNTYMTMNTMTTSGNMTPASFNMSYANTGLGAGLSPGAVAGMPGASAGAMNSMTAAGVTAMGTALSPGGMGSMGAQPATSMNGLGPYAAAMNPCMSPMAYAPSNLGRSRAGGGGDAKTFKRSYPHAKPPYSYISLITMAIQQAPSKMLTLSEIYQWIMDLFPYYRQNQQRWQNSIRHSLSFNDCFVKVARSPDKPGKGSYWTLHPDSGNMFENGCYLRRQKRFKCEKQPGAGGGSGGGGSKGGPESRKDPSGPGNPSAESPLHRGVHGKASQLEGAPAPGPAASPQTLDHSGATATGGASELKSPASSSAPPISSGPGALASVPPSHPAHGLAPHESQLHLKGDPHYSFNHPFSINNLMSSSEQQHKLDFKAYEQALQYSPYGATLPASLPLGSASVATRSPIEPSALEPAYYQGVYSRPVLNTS
Strand,normalised bound fraction
ATCTTCCCCCTCTTCCTTGCCCCACCAGCTCACCTTCCCGGGTTATTTGCAGATAGGAAAATAAATAAAGCCGGCATTCGTTAGCATCCCGACTCTCATATCGGCTGTTTGCTCTGGATGAATCATGGTCCTTTGGCGACGCCAGGCTCCGGGAGAGCAAAGCACCGTGTCAGGGCCATGATCCGGGGTGGCC,0.366 ratio
GTTTGGCATTTATTTTTACTTTGTTGTAATAGTAATCTCAAGGGATCCCCTTTATTTAGCATAAAATTTCCTTGCCAGAAAGTAATTTTTTGAAGATTATATAAGCAGCTATAAAAACAATTTCCTGAGAGATTTCTCCACAAAAATATTTACCTGCTTGAGCCGATGGATTGAGATGATTTGGAAACCAAAC,-0.0153 ratio
ATCCACGAACCTGGCCCTGTCTGGTAACCACAGTGAACCATCGCAAGATACAGCACTATGTGCCCAGTTGGGCTGGTAATGTCACACAAATGTGTCAACACTGGTAATGACTCACGGACACGGAAGTGTACTTGTTTTTGGAGAGGGACTAGACCTTCATCCTTGAGGTGAAGAAGATTTTCTCTCCAGGGTG,0.0531 ratio
TAGCAGGTCACTGCCAGTCACGAGGGCAGAGAGACCCAAAGGATCAGAGAACAGCTCTGAGCAGGTCAAGGGCAGTGCCAGAAGGAAAGCCTTAGATTACAGAGGGAAAGATCCTGCACCTTGAAGTGAGGCATTAAAGAGTAGAGGGGCTTTGCACCTGCATCCTAAGCCTCTTGGTTCACCACTAAGCCGC,-0.0819 ratio
TCCTTTATCCCAACATGTTTATACAGACAAAACCAGGTTAAAATCGACACAAGGTCAACTTGAAATAAGAGGAAGGTGGGGAGACGTCACAAAATAAACATGAAGTCTTGTGTACAAGCATCTGCAGAAGAGTTCAGCCTCACCACTTGGGTAATGCTGTTGGAATGTGGTCTGGGTTCACTGTATTTGAATG,0.387 ratio
CATTAGAGTCAAAGTTGTTAAGGGGAGCTAGTCATAGCTACCACGTGGCCAGGCATGTATGAATCATCAGGAACCAGACACCAGGCACACATCTATTTACTTTAAATAATGCTGACAACCTAGTTCATAGTGACACACTACTTGAGATATATAGAATAACATTATTACCCAGTAAGTATGTGAACATTCCGAT,0.366 ratio
CCCGGAGGACCCGACCGGAGAGGGCGAGAGGAGGAGGAGCCCGGGTGGCGGGAAGCGAGCCCAGGTTCCCGCGGCCTTGCGAGGGCACGCAGGGCAAACAGTGCTTTATCTTTCGCAGCGGCGATGAGCTGGTGACTTTTGGGGGTCATCCTGAGGGACATAGACGAAACTGGTTGGGAGGTAGTTAATTGCT,0.0224 ratio
ACACCCTTGACCTCTTCATATTGACATCATACGGTACTATATCCTCACAAAATGATTTCCAGTGCTTAATTTAGGTTGTAGCTGCTTTCTTAAGCAATCTGGAAGAAAAACAGCTAGGGTAGTAATTGGAGTGTCTGTCTTTGAGTTTCCAGTTGTTATGGGATATTTATCTCAAAGGCCAGATGCATCTGAC,-0.033 ratio

# Sample 3 — read-out: peptide binding; molecule type: peptide; medium: yeast competitive growth; with: B1-Cln2 chimera; direction: direction not given
Molecule,enrichment score
DKYDEGLYRFNSLNDL,0.922
QNPCGSKACRRLFGPV,-1.03
GTPKRCLDLSNLSSGE,-0.848
AEHPKPSACRNLFGPV,-0.726
KRCATPVIIDEILPSK,0.371
DVSERGYVILPNDYFE,0.844
ASVLSKPIFCFVKD,0.216
RTEALEQGGLPKKLIF,0.35
SNFFDVIKQLFSDEKN,0.561
YLYLLLTQSLWCRV,-0.695
GPVKLEFDVSDGAT,-0.0659
LENIEPLQVSFAVLSS,1.17
AKRSLGFLPQPVPL,-1.02
ATNSSHTDAHEILVSD,0.384

# Sample 4 — technique: protein binding microarray; molecule type: double-stranded DNA, one strand shown; medium: in vitro; tested at: not given; baseline: not given; direction: higher = stronger binding
# Target: Histone acetyltransferase KAT6A, winged helix 1, GST fusion (KAT6A, Homo sapiens, UniProt Q92794, residues 1-85)
# Notes: 8-mer, flanks averaged, mean of 2 arrays, mostly near background
# Residues (chain): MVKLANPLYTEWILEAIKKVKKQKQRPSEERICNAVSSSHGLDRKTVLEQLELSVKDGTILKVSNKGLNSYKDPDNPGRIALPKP
Strand,E-score
AGGAAAAT,-0.206
CTCGCACC,-0.0568
GACATGAC,0.0642
ACCAGTCC,-0.104
TCGATGCA,-0.21
CAGAGGTC,0.0339
ATCGGCCG,0.39
CCGGCAGA,0.114
CGGGAGCC,0.276
AACACAAG,-0.195
AATATACC,-0.135
GTCGAGCA,-0.144
CGCCTAGA,0.278
AACTGGGC,-0.218
GACGTAAA,0.134
ATGCCTTG,-0.203
AGATGCAT,-0.207
CACCGCAG,0.108
TAACTGCA,-0.149
GAACGCGC,0.405
GAACGTCA,-0.0664
TAACGCGA,0.239
AGTAAGGA,-0.0882
CGGAATGC,0.19
AACCATAA,-0.0464

# Sample 5 — technique: RNA Bind-n-Seq; molecule type: RNA; medium: in vitro; tested at: 200 nM; notes: whole 134-nt RNA, ends assumed; with: 150 mM LiCl; baseline: input library; direction: higher = stronger binding; library: 7-deaza-guanosine replaces G
# Target: Ras GTPase-activating protein-binding protein 1, full length (G3BP1, Homo sapiens, UniProt Q13283)
# Sequence of UniProt Q13283 (whole entry, looked up): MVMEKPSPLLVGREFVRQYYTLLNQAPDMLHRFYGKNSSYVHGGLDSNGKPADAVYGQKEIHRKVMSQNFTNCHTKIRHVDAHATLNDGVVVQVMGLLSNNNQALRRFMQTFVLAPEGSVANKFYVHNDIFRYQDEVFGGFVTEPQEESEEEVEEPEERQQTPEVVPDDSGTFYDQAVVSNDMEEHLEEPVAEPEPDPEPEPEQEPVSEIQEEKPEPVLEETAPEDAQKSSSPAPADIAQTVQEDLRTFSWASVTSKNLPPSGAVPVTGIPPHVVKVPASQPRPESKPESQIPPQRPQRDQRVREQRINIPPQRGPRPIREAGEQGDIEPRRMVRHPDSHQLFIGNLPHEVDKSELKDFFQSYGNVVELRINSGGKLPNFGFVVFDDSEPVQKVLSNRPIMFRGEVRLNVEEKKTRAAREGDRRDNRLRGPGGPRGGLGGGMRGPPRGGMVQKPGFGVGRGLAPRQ
# Constant ends, left off below: GGGAGUUCUACAGUCCGACGAUC … UGGAAUUCUCGGGUGUCAAGG
Strand,log2 enrichment
ACCAUGCAGGUGGGCAUCUUUGGGAAGUGGGGCAAGGGGGGGAUAGGGAGGGGGGUAACACUUUGGGGACAGGUGGUCCCAGGUCGUUUC,0.0811
CUCAAGUCCUGUGCUACACAUCGUAUGUACCGAAUCGGGAAGGAAGGGAAGGGGAAAGUAUUAUGUUACGCCGUUCGGAUCUGCACUUCC,0.285
UCCUCAAGUCCUGUGCUACACAUCGUAUGUACCGAAUCGGGCGGCGGGCGGGAAAGUAUUAUGUUACGCCGUUCGGAUCUGCACUUCCAG,1.05
UGCCUACGUAAUUUUUUAUCUUGAAAUAUUCAAAAUUAGGAGCCAGAUGACCAAGAUGCUCCAGAUGAACAUGAGUCGCCUCCACCUGAA,-0.29
CCUGUGCUACACAUCGUAUGUACCGAAUCGGAAAAAAAGGAAAAAAAGGGGAAAAAAAGGGAAAGUAUUAUGUUACGCCGUUCGGAUCUG,-0.313
UUUGUAGAGCAGCCCGACGGCCAUGGAGGCUGAAGAGACGAUGGAAUGCCUUCAGGAGUUCCCUGAACAUCAUAAAAUGAUCCUCGACCG,-1.44
GCAGGAAGUAAAAACAAAUGGAAAUGCUUCGGAGAGUGGCAGGGGUGGGGGUUGCUAAGGAAAGGGUGGGAUGGGAGUGGGUAAAGAGUU,0.116
GUCCUGUGCUACACAUCGUAUGUACCGAAUCAAACCCCCAAACCCCCAAACCCCCAAAAAAGUAUUAUGUUACGCCGUUCGGAUCUGCAC,-0.421
UAACUUUAGAGGAGGAUAUGAUGGAUAUGGCAGUGGACGUGGAUUUGGGGAUGGCUAUAAUGGGUAUGGAGGAGGACCUGGAGGUGGCAA,0.171
UGCUGUGCAGCGGCAUCGGCCCACUGUGGUGGAAUGUCUACGGGAAACUGAUGCCUCCCUCAGCCGGUGAGCAGUGAUAGAGGGGACAGG,-0.825
GUCCUGUGCUACACAUCGUAUGUACCGAAUCGGGUUUUUUUGGGAAAGGGUUUUUGGGAAAGUAUUAUGUUACGCCGUUCGGAUCUGCAC,-2.07

# Excerpt of the above (sample 4):
Strand,E-score
AGGAAAAT,-0.206
CACCGCAG,0.108
CGGGAGCC,0.276
AACACAAG,-0.195
CTCGCACC,-0.0568
